Results of several laboratories.
Parts stem from different laboratories: compare values within a part only. Positions count from the first letter of the parent shown.

Study 1
Target: ABI1, truncated, D143A, DHFR fusion (Arabidopsis thaliana, UniProt P49597)
Technique: DHFR PCA, dose-response
Sample: yeast
Setting: Hill fit, mean, not affinity
With: (+)-ABA, dose series
Direction: lower = more sensitive
Starting sequence: PYL1, truncated, DHFR fusion (Arabidopsis thaliana, UniProt Q8VZS8); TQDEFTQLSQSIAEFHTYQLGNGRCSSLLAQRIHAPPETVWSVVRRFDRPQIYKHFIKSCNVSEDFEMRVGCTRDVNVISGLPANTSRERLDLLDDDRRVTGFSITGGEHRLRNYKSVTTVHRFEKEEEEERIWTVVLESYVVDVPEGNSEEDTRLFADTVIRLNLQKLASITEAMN
Variant | ABA EC50 [µM]
V43K | 78.9
T106F | 1.67
I133G | 1.19
S42G | 3.71
G21H | 3.31
P146L | 208
R132P | 1.59
T1W | 1.34
I162M | 459
S104Q | 59
P37K | 187
G148T | 11.7
F124T | 18.4
H34P | 12.9
E64G | 2.72
V100M | 9.47
Q19N | 2.91
L93N | 67.7
R98A | 6.78
Y53Q | 197
A170R | 1.48
E125R | 2.19
E128W | 5.62
P83D | 37.3
H34M | 3.53

Study 2
Target: ATF3, bZIP domain (human)
Technique: DHFR protein complementation
Sample: yeast
Setting: single substitutions, most at no-binding floor
Relative to: wild-type JUN-FOS pair
Direction: higher = stronger binding
Starting sequence: JUN, bZIP domain (human); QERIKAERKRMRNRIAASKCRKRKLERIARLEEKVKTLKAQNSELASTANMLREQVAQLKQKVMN; partner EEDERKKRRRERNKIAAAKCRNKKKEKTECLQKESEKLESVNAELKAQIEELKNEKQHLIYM
Variant | binding fitness [natural log]
L52H | -1.43
V56L | -0.467
A40G | -0.339
T48A | -0.163
A49G | -0.8
K39Y | -0.532
V56Q | -1.46
E54K | -0.281
A29E | -0.23
A40S | -0.144
K34W | -0.0117
V35P | -1.24
A46T | -0.0651
A40Q | -0.079
V35L | -0.251
A49Y | -0.107
R30F | -0.0442
T48W | -0.364
R30K | -0.21
V56T | -0.799
S43L | -0.0906
E33A | -0.126

Study 3
Target: RING finger protein unkempt homolog, zinc fingers 1-6, GST-SBP tag (UNK, Homo sapiens, UniProt Q9C0B0, residues 30-357)
Chain of UniProt Q9C0B0 (30-357, looked up): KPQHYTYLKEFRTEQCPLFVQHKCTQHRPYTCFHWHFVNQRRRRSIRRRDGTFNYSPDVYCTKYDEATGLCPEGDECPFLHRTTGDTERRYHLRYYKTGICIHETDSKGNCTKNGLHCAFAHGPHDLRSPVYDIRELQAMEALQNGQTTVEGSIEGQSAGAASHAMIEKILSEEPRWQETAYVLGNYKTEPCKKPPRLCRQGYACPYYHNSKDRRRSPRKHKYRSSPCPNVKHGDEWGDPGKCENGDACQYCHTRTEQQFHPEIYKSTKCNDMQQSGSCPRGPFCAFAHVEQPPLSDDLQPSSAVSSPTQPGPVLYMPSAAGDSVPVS
Technique: RNA Bind-n-Seq
Molecule type: RNA
Sample: in vitro
Concentration: not given
Setting: RNA with constant flanks, human and mouse sites, ends assumed
Relative to: input RNA pool
Direction: higher = stronger binding
Strand | bound/input enrichment [ratio]
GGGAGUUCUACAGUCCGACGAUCCUUUGUGUGCCGCUGUUUGACGGUUCGUGUCGUUUUAUUGACCCACAGACUAUUCAGUCUAUCCAGCAGUGCCAUUUACUGCUUAGCAACCUUAGUACAGUCUUAAGCUGUUUUGCAAUGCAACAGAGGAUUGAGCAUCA | 3.62
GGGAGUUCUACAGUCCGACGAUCAUCCAAUACUGGGGAUAAAUCCUAGAGAAACUCAUACAUGUACACCAGGAGAUGUGUACAAGAAUAUUCAUAGCAACCCUAUUCACAAAAGCAAAAGCCUAGAAAUAACCCAGAUGCCCACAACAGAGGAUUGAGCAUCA | 4.82
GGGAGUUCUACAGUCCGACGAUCGGUACCAACAAAGACAAGGCUGAAUUCAUUCUGCCUAAUGGUCAAGAAGUAGAUCUCCCGAUUUCCUACUUAACUUCAGUCUCAUCUUUGAUUGUGUGGCAUCCAGCAAACCCUGCGGAGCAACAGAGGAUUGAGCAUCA | 0.129
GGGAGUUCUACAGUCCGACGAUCGCAUCCUGAGCUGCACCCUGUACUGCAGCCUGGGGCCUGGUGGGUAUUUGGAGUCGCAUGUGGCUCUGUAUGGUUCCCAGCACAGCCGAAUUUGCACGUGGAGUGUGGUUAGGGGCAAAGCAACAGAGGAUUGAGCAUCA | 0.119
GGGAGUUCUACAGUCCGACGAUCUAUCAUAAUGUGUAUACUCGAGAUCCUAAUUAUCUCAAUUUGUUCAUUAUUGUAAUGGAGAAUAGUAAUCUCCACAGUCCUGAAUAUCUGGAAAUGGCGUUGCCAUUAUUUUGCAAAGCUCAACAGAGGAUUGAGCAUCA | 0.314
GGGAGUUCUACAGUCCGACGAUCCAUUUAUUCAUUCUGUUUCUAUAUAGCAAAACUGAAUGUCAAAAGUACCUUCUGUCCACACACACAAAAUCUGCAUGUAUUGGUUGGUGGUCCUGUCCCCUAAAGAUCAAGCUACACAUCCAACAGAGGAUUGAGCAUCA | 0.419
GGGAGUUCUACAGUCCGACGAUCGUGGAUGACGAUGACUACUUCCUCUGCCUUCCUUCCAAUACGAAGUUUGUGGCGUUGGCCUGCAAUGAGAAGUGGAUUUAUAAUGAUUCCGAUGGAGGGACGGCUUGGGUUUCCCAAGAGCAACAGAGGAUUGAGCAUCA | 0.274
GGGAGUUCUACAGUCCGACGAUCGAGACCCUGCGCAUGCACGCUGGCUCCCAGCUCACUAGGCUGUCACCCAGUCCUGUCAUUCUUAGACCAUUCAUCUGUCUGUCCAUUUUGCACGAAGAUUCCCCUCUCCUCCCCAACCCUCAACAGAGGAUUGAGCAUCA | 1.1
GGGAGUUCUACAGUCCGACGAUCGCGCGCCGCCGAGCCGGCGCUAACUGGGAUCCUCGCUGGAACAGGAGGGACAGUAUUUUCUACCUUUCCAAACCGCAGACCAAGAAGCUAAGGAGAAUCUAUGUAAAUAUACUGAAAUCUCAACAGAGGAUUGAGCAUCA | 0.128
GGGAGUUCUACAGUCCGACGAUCAAGGAUUGUAAAUCCUACAGUGUGGGAGUAGCAUACAAAACGUUGGGGAAAUUUGACCAAUUGGGAAAGACAAACACUAGUUGGUGUAUCCAUGUCAACAACUGGCUACAAAACACAUUUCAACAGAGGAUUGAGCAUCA | 0.12
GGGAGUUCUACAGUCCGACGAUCAUGAAAAGACUGUGACCUCCUCUGGGGUUUGGUGGCAAGUCUGGGCUGGCAGAGAUGGGAUAGCUUCAGGUUUUGCACCGGCACUUUGAUGACACUCUCCUCUGGUGAUGUUUUAUUUACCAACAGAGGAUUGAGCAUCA | 0.246

Study 4
Target: Interferon regulatory factor 5, full length, phosphomimetic (IRF5, Homo sapiens, UniProt Q13568-2, residues 1-514, S451D/S453D/S456D/S462D)
Technique: protein-binding microarray
Molecule type: double-stranded DNA, one strand shown
Sample: in vitro
Concentration: 940 nM top
Setting: 60-bp whole probe
With: salmon DNA 0.4 mg/ml
Relative to: random background probes
Direction: higher = stronger binding
Shared flanks, not repeated: GCCTAGCAC … GTCTTGATTCGCTTGACGCTGCTG
Strand | fitted relative affinity
GACGGTTTCGTACTGCTGACGTGCTAG | 5.12 z-score
CTAGGTTTCGGTCTCGGTTAGTGCTAG | 13.6 z-score
TTAGGACTCCTACTGCTTTAGTGCTAG | -0.26 z-score
GCCGATTTCGGGTATCGAGACGTGCTA | 2 z-score
TCAGTTTTCTAATGTTTTACTGTGCTA | 0.997 z-score
GGAAGTCCCATGTTGCAGACTGTGCTA | 0.0727 z-score
TTAGGTATCGGTCTCGGTAAGTGCTAG | 10.4 z-score
TTAGGACGGGGGTTTCGGTTAGTGCTA | 11.9 z-score
ATATATATTCATATATATATGTGCTAG | 0.374 z-score
TTGGATTCCAGTTTCGATTAGTGCTAG | 8.73 z-score
GACGGACTGCTACAGCTGACGTGCTAG | -0.45 z-score
GACGGTCTCGGTAACGGGACGTGCTAG | 2.8 z-score
GACGGACTGGGGTATCCGGACGTGCTA | -0.135 z-score
GACGGTTTTGACTATCGGGACGTGCTA | 0.336 z-score
TCAGGCCTCTTGCTCAGACTGTGCTAG | -0.355 z-score
TTACGTCTCGGTCTCGGTTAGTGCTAG | 6.23 z-score
GACGATTTTGGGACTGGAGACGTGCTA | -0.213 z-score
TTATGTATCCTTATCCTTTAGTGCTAG | 0.859 z-score
GACGGTATCGGTCACGGGACGTGCTAG | 8.36 z-score
TTAGGTTTCGGTACCGGTTAGTGCTAG | 15 z-score
GACGATCTCAATATCGAGACGTGCTAG | 0.343 z-score

Study 5
Target: CCNE1, cyclin fold, Cln2 fusion (human)
Technique: yeast growth competition, sequencing
Sample: yeast
Setting: weak parent motif
Relative to: not given
Direction: higher = stronger binding
Starting sequence: FOXM1 docking peptide (human); PHLARPIKVESPP
Variant | normalised enrichment score
PHLARPIAVESPP [K8A] | -0.00798
PHLARPIKVESPA [P13A] | -0.249
PHAARPIKVESPP [L3A] | -0.0795
PALARPIKVESPP [H2A] | -0.213
PHLARAIKVESPP [P6A] | -0.223
PHLARPAKVESPP [I7A] | -0.327

Study 6
Target: PABPC1L2, full length, GST fusion (mouse, UniProt A0ABA7IW68)
Technique: RNAcompete
Molecule type: RNA
Sample: in vitro
Concentration: 20 nM
Setting: 7-mer, probes averaged, single round
Relative to: mean of 7-mers
Direction: higher = stronger binding
Target sequence (chain): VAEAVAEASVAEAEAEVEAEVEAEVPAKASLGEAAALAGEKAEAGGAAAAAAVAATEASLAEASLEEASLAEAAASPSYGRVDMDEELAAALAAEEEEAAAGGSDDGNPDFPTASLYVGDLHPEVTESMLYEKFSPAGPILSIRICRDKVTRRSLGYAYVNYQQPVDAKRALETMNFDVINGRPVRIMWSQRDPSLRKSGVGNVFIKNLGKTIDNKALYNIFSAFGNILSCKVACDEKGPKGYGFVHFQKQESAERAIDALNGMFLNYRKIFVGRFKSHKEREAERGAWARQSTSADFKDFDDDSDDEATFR
Strand | 7-mer Z-score
AAAUUGC | 1.9
AUCAUUU | -0.231
AUCAACU | -0.142
AUGAGGA | 0.115
ACAUGAA | 0.234
CCCCGCA | -0.454
UUGGAGG | 0.126
UCGAAGC | -0.11
UCGCACG | -0.362
UGACCAA | 0.184
CCCACAA | -0.295
GAGCUCC | -0.387
UAUACUU | -0.188
UUGACUU | -0.324
UGAUAGA | -0.0373
CGGGUAG | 0.0732
GGACAUA | 0.242
UUGCCCC | -0.394
ACCUAAA | 0.599
CCACCAC | -0.166
ACAGAUU | -0.0591
CAUCAAG | -0.0718

Repeated from above (study 5):
Variant | normalised enrichment score
PHLARAIKVESPP [P6A] | -0.223
PHAARPIKVESPP [L3A] | -0.0795
PHLARPIKVESPA [P13A] | -0.249
PHLARPIAVESPP [K8A] | -0.00798
PALARPIKVESPP [H2A] | -0.213
PHLARPAKVESPP [I7A] | -0.327
